# Results gathered from unrelated publications.
# A part holds a random share of what one study measured. Positions count from the first letter of the parent shown.

# Study 1 — method: competition protein-binding microarray; form: double-stranded DNA, one strand shown; matrix: in vitro; concentration: 2 µM; together with: Cbf1 competitor, 0.05 µM; direction: higher = stronger binding; all sequences stand within: … GTCTTGATTCGCTTGACGCTGCTG
# Target: Phosphate system positive regulatory protein PHO4, full length, GST-tagged (PHO4, Saccharomyces cerevisiae, UniProt P07270, residues 1-312)
# Chain of UniProt P07270 (whole entry, looked up): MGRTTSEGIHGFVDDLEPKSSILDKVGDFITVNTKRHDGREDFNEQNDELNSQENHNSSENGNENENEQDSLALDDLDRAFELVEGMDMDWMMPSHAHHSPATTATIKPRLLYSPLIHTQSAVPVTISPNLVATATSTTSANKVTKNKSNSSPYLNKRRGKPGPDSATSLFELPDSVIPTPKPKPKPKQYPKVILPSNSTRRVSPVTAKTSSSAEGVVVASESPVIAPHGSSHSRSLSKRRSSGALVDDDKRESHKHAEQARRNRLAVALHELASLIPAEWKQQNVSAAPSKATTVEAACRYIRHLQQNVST
# Notes: whole 60-bp probe, lowest competitor level
Sequence,fluorescence intensity [a.u.]
AAAGCGGTAATTTGATTAGTGGGTGCAGATATCTAT,4050
TCAGAGAACAGGAAGCATGTGCTCAGTGCACAGGCG,12200
TTTAAAATGAGTGCGTAACCGTACTTTCCTAAAAAT,4670
CGGGGTTAAGTTTGTCACGGAACTTGCTTGCAGCAG,4240
CTAACGAAGGTTTCCCACGTGTTTTACAAGCCAAGT,17800
CGTCCTAGTGATTGTCACAGAACTTCCATGAGGAAG,4980
GACAGTCTTAGTGTAGACGTGACGGTTCTTGGTGGC,4760
GTCTTGTCTCATTATCACGTGTTTTTCCCCACTTCA,14400
GCGGGCATCGCGTTCGTCGTGACGAATGACTTGAAA,3660
GTATTTTAACCACTGCTCGTGAAGACCACTCCAGTG,6010
GCCTACCGGTCCTCGCACGCGGTCTCGCTTTTCTCA,10300
GTCTTGTCTCATTGTCACAGAACTTTCCCCACTTCA,4480
GATATTGTACGTATTCACGTGTGAATTGCTAAAGAG,16600
CATACCCAACCTTGTCACTAGACTTAAGATATTTGT,3430
TCAATCTTTGTTCGTCAGGTGGGATACCTTCCTTGT,4590
AAAGCGGTAATTTTTCACGTGCAGTCAAATATCTAT,14100
CAAGCATAGCGTATACACGTGCAAACACAAGCATAC,17200
GTCTTGTCTCATTGGTCCGTGGGTGTCCCCACTTCA,7000
AATGTGTCGTTCGAACTCGTGGTTACGTCGCCTGGA,8890
GCATTAACGACAAAGCACGTGACGAATTCCCTTCAA,17100
TTCCAGGAATAAAAGACCGTGCCAGTAATTTCAAGT,8070
CTTCTGTAAATTTGGGATGTGGGTGGACGCGCCCCG,4560
TTGCTGGATTCTTATCAGGTGTGGCAGTATGTCCCC,4390

# Study 2 — target: MAFF, bZIP domain (human); method: DHFR protein complementation; matrix: yeast; relative to: wild-type JUN-FOS pair; direction: higher = stronger binding
# Notes: single substitutions, most at no-binding floor
# Starting sequence: JUN, bZIP domain (human); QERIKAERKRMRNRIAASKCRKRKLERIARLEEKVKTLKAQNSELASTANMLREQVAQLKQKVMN; partner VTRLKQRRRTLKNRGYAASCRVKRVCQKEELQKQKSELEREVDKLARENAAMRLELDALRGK
Variant,binding fitness [natural log]
K36L,-1.44
A40H,-1.15
V35R,-1.57
K39H,-1.53
T37G,-1.45
A46D,-1.46
A57H,-1.46
A46N,-1.42
R53L,-1.61
L52R,-1.46
N42E,-1.43
L31S,-1.26
E54L,-1.57
E44C,-1.39
K34Q,-1.33
L45I,-1.51
A29C,-1.49

# Study 3 — method: DHFR PCA, deep sequencing; matrix: yeast; together with: (+)-ABA 0.032 µM; relative to: wild-type fitted maximum; direction: higher = stronger binding
# Target: ABI1, truncated, D143A, DHFR fusion (Arabidopsis thaliana)
# Notes: methotrexate growth selection, single substitutions
# Starting sequence: PYL1, truncated, DHFR fusion (Arabidopsis thaliana); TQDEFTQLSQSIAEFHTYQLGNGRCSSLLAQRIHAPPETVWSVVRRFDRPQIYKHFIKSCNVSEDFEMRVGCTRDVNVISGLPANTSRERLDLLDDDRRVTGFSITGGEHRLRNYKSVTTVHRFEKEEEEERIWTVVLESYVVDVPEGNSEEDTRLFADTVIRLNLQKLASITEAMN
Variant,relative binding score
H55D,-0.747%
R111H,8.53%
T173Q,-1.64%
F124Q,5.53%
I12A,2.22%
T17Y,-6.07%
V43A,2.9%
Y141M,-2.86%
F157W,28.1%
R49V,2.26%
A35R,-5.13%
M68S,-1.71%

# Study 4 — target: CCNB3, cyclin fold, Cln2 fusion (human); method: yeast growth competition, sequencing; matrix: yeast; notes: strong parent motif; relative to: not given; direction: higher = stronger binding
# Starting sequence: PKN2 docking peptide (human); VSAVRKLDFSDTM
Variant,normalised enrichment score
S2Y,1.5
S2T,1.63
V4P,0.392
V4Q,0.579
S2F,1.2
T12Q,1.38
L7W,-0.109
F9P,-0.181
L7K,0.247
T12N,1.57
R5I,0.349
S10N,1.22
L7E,-0.396
F9W,0.601
A3H,0.529
S10K,0.681

# Study 5 — method: aptamer microarray, sandwich; form: DNA with 2'F-ANA; matrix: in vitro; concentration: 200 nM; together with: Cy3 exosite-II aptamer, 400 nM; direction: higher = stronger binding; sequence: GGTTGGTGTGGTTGG
# Target: Prothrombin, mature alpha-thrombin (F2, Homo sapiens, UniProt P00734)
# Notes: whole 15-mer aptamer, many near background
Modification,mean fluorescence intensity [a.u.]
2'F-ANA at 2 3 4 6 7 8,707
2'F-ANA at 3 5 6 7 8 12,263
2'F-ANA at 3 4 5 8 13,71.2
2'F-ANA at 1 6 9,173
2'F-ANA at 2 3 9 10 12 15,419
2'F-ANA at 2 5 9 14,43.6
2'F-ANA at 2 4 5 6 7 8 11 13 14 15,51.6
2'F-ANA at 4 6 8 9 11 13,162
2'F-ANA at 1 2 4 6 7 8 12 13 14 15,62.4
2'F-ANA at 4 5 8 9 14,69.2
2'F-ANA at 4 5 6 10 11 12 13,49.1
2'F-ANA at 1 3 4 6 7 9 10 12 13 14 15,54.8
2'F-ANA at 3 5 6 8 9 13 14 15,56
2'F-ANA at 1 3 6 7 8 10 12 14 15,70.2
2'F-ANA at 1 2 3 4 5 7 9 10 11 12 13,49.2
2'F-ANA at 2 3 4 5 6 7 8 9 12 13 15,104
2'F-ANA at 1 2 3 4 5 8 9 13 15,52
2'F-ANA at 1 2 3 4 6 10 11 12,64.7
2'F-ANA at 3 6 9 12 13 15,954
2'F-ANA at 1 3 4 5 6 10 11 12 15,53.8
2'F-ANA at 1 6 9 10 11 14 15,46.3
2'F-ANA at 1 2 5 7 8 9 12 13,77.6

# Study 6 — method: protein-binding microarray; form: double-stranded DNA, one strand shown; matrix: in vitro; concentration: 2540 nM top; notes: 60-bp whole probe; together with: salmon DNA 0.4 mg/ml; relative to: random background probes; direction: higher = stronger binding; all sequences stand within: GCCTAGCAC … GTCTTGATTCGCTTGACGCTGCTG
# Target: Interferon regulatory factor 3, full length, phosphomimetic (IRF3, Homo sapiens, UniProt Q14653, residues 1-427, S386D/S396D/S398D/S402D/T404D/S405D)
# Construct (chain): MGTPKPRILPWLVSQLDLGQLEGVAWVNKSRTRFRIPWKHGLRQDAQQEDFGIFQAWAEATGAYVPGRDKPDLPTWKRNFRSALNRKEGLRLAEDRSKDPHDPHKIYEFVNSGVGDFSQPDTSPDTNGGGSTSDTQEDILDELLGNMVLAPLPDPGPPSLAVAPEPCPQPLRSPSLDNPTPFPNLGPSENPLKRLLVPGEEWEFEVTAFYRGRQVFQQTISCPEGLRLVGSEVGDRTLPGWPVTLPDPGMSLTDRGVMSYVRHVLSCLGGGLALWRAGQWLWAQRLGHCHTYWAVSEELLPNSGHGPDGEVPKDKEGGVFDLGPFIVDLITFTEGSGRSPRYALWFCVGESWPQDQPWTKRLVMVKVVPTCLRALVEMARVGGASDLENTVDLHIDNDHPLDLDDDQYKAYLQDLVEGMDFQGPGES
Sequence,fitted relative affinity
TGTTTTTGCTTTCTTTATGTGTGCTAG,2.73 z-score
GACGAACTGGGGCCTGGAGACGTGCTA,-0.793 z-score
GACGGTATCGGATTGGGGACGTGCTAG,2.98 z-score
TCACCTCAGGGTTTCAGACTGTGCTAG,0.65 z-score
TTAGGTCTCCTTCTCCTTTAGTGCTAG,4.03 z-score
GACGGACTGCTTCTCCAGACGTGCTAG,-0.202 z-score
TTAGATTTCAGATTCGATTAGTGCTAG,3.65 z-score
GACGAACTGAGTCTCGAGACGTGCTAG,-0.311 z-score
ACCTGTATATCTTCAGCGGGGTGCTAG,0.429 z-score
GACGGTCTCGGTTTTGGGACGTGCTAG,2.13 z-score
GACGGTTTCGGACTGAGGACGTGCTAG,4.74 z-score
GACGAACTGATTTTCGAGACGTGCTAG,0.656 z-score
TTGGGTCTGGGTATTTTTCTGTGCTAG,-0.948 z-score
CCACATCTCTGTCCGTGCTCGTGCTAG,0.861 z-score
TTAGGTTCCCTTTTCCATTAGTGCTAG,7.47 z-score
GACGGTTTCCTTTTCCTAACGTGCTAG,11.1 z-score
CCATTTCTGTTTTTGCTTTCGTGCTAG,3.92 z-score
CTCTTGTTCTCTCTGGCCCTGTGCTAG,0.522 z-score

# Excerpt of the above (study 1):
Sequence,fluorescence intensity [a.u.]
AAAGCGGTAATTTGATTAGTGGGTGCAGATATCTAT,4050
TCAGAGAACAGGAAGCATGTGCTCAGTGCACAGGCG,12200
TTTAAAATGAGTGCGTAACCGTACTTTCCTAAAAAT,4670
CGGGGTTAAGTTTGTCACGGAACTTGCTTGCAGCAG,4240
CTAACGAAGGTTTCCCACGTGTTTTACAAGCCAAGT,17800
CGTCCTAGTGATTGTCACAGAACTTCCATGAGGAAG,4980
GACAGTCTTAGTGTAGACGTGACGGTTCTTGGTGGC,4760
GTCTTGTCTCATTATCACGTGTTTTTCCCCACTTCA,14400
GCGGGCATCGCGTTCGTCGTGACGAATGACTTGAAA,3660
GTATTTTAACCACTGCTCGTGAAGACCACTCCAGTG,6010
GCCTACCGGTCCTCGCACGCGGTCTCGCTTTTCTCA,10300
GTCTTGTCTCATTGTCACAGAACTTTCCCCACTTCA,4480
GATATTGTACGTATTCACGTGTGAATTGCTAAAGAG,16600
CATACCCAACCTTGTCACTAGACTTAAGATATTTGT,3430
